Published values pooled from the literature.
Each line is one published result; not all experiments were run side by side. Numbers after ± are the reported error.
B1: STAMBPL1 (Homo sapiens, UniProt Q96FJ0); sequence looked up; chain MDQPFTVNSLKKLAAMPDHTDVSLSPEERVRALSKLGCNITISEDITPRRYFRSGVEMERMASVYLEEGNLENAFVLYNKFITLFVEKLPNHRDYQQCAVPEKQDIMKKLKEIAFPRTDELKNDLLKKYNVEYQEYLQSKNKYKAEILKKLEHQRLIEAERKRIAQMRQQQLESEQFLFFEDQLKKQELARGQMRSQQTSGLSEQIDGSALSCFSTHQNNSLLNVFADQPNKSDATNYASHSPPVNRALTPAATLSAVQNLVVEGLRCVVLPEDLCHKFLQLAESNTVRGIETCGILCGKLTHNEFTITHVIVPKQSAGPDYCDMENVEELFNVQDQHDLLTLGWIHTHPTQTAFLSSVDLHTHCSYQLMLPEAIAIVCSPKHKDTGIFRLTNAGMLEVSACKKKGFHPHTKEPRLFSICKHVLVKDIKIIVLDLR
B2: CFH domains 1108-1231 S1191L (Homo sapiens, UniProt P08603); sequence looked up; chain KCGPPPPIDNGDITSFPLSVYAPASSVEYQCQNLYQLEGNKRITCRNGQWSEPPKCLHPCVISREIMENYNIALRWTAKQKLYLRTGESVEFVCKRGYRLSSRSHTLRTTCWDGKLEYPTCAKR
B3: C1S 438-688 P520A/E521A/S632A (Homo sapiens, UniProt P09871); chain IIGGSDADIKNFPWQVFFDNPWAGGALINEYWVLTAAHVVEGNREPTMYVGSTSVQTSRLAKSKMLTPEHVFIHPGWKLLEVAAGRTNFDNDIALVRLKDPVKMGPTVSPICLPGTSSDYNLMDGDLGLISGWGRTEKRDRAVRLKAARLPVAPLRKCKEVKVEKPTADAEAYVFTPNMICAGGEKGMDSCKGDAGGAFAVQDPNDKTKFYAAGLVSWGPQCGTYGLYTRVKNYVDWIMKTMQENSTPRED
B4: Mena EVH1 1-113 (Homo sapiens, UniProt Q8N8S7); chain MSEQSICQARAAVMVYDDANKKWVPAGGSTGFSRVHIYHHTGNNTFRVVGRKIQDHQVVINCAIPKGLKYNQATQTFHQWRDARQVYGLNFGSKEDANVFASAMMHALEVLNS
Chain of UniProt P01024 (whole entry, looked up): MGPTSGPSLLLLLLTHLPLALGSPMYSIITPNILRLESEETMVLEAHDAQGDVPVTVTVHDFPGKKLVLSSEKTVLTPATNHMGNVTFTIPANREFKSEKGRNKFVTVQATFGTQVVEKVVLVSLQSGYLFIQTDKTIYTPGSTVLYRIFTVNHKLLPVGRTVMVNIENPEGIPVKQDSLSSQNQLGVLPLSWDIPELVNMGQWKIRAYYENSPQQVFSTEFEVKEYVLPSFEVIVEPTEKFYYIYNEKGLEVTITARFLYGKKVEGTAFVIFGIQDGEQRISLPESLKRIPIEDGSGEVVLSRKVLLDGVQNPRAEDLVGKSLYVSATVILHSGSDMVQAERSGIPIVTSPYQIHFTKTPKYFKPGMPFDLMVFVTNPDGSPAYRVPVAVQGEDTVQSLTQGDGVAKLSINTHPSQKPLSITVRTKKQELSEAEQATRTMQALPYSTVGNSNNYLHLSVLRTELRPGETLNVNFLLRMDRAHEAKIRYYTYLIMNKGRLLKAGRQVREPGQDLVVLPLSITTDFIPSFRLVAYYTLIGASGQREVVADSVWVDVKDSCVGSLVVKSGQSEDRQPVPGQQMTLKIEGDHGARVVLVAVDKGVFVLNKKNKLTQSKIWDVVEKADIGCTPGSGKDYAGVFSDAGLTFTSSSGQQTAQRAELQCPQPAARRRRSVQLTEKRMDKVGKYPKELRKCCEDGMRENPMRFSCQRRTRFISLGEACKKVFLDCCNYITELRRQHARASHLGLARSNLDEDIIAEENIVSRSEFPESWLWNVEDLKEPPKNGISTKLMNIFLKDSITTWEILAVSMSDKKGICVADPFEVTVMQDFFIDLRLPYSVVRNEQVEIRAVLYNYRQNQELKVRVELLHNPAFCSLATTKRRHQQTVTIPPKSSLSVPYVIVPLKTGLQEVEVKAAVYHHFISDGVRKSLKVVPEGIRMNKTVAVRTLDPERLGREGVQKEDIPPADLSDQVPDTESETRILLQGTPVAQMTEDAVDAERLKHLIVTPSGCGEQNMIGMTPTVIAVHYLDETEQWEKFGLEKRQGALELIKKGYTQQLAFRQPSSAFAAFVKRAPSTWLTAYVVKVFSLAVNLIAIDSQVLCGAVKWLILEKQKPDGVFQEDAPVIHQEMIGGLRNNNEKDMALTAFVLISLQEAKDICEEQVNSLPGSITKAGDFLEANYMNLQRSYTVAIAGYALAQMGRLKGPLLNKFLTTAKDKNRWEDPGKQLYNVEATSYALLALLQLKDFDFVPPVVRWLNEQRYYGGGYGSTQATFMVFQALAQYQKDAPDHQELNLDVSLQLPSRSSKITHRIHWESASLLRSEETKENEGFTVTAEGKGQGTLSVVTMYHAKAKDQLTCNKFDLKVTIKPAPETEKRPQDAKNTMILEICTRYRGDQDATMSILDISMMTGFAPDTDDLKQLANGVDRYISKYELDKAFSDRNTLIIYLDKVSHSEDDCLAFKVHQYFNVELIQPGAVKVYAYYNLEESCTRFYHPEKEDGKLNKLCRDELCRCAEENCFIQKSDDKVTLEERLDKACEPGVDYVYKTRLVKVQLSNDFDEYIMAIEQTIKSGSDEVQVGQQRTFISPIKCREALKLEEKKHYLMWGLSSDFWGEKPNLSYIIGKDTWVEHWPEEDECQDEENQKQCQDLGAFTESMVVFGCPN
Chain of UniProt Q9NZQ7 (whole entry, looked up): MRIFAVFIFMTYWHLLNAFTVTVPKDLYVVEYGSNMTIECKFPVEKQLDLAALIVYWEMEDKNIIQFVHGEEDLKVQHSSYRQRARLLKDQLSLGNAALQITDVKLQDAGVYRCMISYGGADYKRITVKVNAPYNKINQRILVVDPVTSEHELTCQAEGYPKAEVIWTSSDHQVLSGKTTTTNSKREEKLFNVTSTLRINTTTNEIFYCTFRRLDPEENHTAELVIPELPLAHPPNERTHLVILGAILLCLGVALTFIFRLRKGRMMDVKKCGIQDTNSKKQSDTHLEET
Chain of UniProt Q86YC2 (whole entry, looked up): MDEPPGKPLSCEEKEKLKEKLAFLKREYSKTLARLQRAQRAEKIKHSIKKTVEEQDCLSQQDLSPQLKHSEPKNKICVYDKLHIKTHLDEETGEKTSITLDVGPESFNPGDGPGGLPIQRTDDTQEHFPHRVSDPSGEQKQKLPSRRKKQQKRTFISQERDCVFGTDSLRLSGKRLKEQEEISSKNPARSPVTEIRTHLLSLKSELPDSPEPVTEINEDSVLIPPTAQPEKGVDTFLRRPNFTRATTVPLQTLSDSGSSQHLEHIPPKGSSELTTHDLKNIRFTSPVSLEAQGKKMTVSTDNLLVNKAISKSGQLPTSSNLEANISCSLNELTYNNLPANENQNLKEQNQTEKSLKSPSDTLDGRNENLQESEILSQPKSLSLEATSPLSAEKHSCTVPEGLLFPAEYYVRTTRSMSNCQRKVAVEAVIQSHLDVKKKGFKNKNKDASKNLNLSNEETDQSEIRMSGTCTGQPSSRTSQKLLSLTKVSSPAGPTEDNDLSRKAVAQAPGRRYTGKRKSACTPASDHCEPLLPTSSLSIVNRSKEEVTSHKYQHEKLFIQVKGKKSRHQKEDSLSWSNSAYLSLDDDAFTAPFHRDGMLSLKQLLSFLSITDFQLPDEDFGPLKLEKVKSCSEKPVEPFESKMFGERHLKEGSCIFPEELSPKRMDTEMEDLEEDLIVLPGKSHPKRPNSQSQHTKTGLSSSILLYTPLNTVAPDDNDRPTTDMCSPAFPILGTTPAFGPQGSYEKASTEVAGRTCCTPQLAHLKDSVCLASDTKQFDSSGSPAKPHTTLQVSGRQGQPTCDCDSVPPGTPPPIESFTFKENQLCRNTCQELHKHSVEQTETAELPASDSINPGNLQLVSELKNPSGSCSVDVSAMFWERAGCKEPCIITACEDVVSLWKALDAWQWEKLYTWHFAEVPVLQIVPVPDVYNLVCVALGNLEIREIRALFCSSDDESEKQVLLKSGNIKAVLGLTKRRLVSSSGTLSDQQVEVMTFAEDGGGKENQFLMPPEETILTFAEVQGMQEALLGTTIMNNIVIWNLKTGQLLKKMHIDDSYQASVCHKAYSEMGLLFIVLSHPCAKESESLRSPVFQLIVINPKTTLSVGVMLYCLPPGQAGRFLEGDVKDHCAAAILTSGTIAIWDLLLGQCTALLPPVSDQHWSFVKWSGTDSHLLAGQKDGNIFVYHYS
Chain of UniProt P05155 (whole entry, looked up): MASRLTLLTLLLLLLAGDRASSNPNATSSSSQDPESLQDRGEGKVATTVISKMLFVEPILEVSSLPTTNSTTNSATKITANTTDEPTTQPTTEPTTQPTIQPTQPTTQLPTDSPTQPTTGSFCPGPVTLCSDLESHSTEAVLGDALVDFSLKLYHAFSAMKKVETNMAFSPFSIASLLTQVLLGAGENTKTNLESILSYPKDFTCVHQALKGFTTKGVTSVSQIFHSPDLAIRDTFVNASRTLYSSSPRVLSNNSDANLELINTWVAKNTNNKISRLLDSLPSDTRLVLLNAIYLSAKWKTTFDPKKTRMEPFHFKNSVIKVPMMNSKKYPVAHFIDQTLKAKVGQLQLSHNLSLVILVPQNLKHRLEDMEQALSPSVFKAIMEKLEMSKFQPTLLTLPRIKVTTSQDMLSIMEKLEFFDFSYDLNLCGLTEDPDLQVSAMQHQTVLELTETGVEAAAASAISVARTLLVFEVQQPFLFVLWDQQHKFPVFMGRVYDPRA
Chain of UniProt P25024 (whole entry, looked up): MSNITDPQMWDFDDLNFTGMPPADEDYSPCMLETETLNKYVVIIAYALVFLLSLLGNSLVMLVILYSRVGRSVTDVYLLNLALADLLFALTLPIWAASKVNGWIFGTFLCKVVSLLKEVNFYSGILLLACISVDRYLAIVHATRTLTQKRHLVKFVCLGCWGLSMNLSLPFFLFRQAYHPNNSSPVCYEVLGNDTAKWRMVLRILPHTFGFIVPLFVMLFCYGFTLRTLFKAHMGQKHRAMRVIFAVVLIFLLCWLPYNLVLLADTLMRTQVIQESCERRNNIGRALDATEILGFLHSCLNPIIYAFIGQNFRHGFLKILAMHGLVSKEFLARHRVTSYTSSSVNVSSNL

B1 (STAMBPL1)  Kd (UBB mature (UniProt P0CG47); ITC): 17300 ± 4300 nM
B2 (CFH domains 1108-1231 S1191L)  Kd (C3 C3dg 955-1303 (Homo sapiens, UniProt P01024); SPR): 1800 ± 200 nM
B3 (C1S 438-688 P520A/E521A/S632A)  Kd (SERPING1 111-500 (Homo sapiens, UniProt P05155); SPR; steady-state, added: Ca2+): 10100 nM
B4 (Mena EVH1 1-113)  Kd (PCARE peptide (Homo sapiens); intrinsic tryptophan fluorescence): 3100 nM
ALLLSAPRR (P5 peptide; fluorescein label)  Kd (SSC1 mature P486S (Saccharomyces cerevisiae); fluorescence polarization; peptide; 25 nM): 210 nM
CDH2 EC5 (Homo sapiens)  Kd (FGB residues 15-66, dimer (Homo sapiens); ELISA): 81.3 nM
CXCL8, Alexa Fluor 647 label (Homo sapiens)  Kd (CXCR1 (Homo sapiens, UniProt P25024); flow cytometry; HEK293A.CXCR1): 367 nM
ACRGDGWCG (cyclic RGD peptide; disulfide-cyclized, aminocaproic acid, FITC)  Kd (ITGAV/ITGB3 ectodomain, soluble, clasped; fluorescence polarisation; peptide): 4.6 nM
LVGWHRSYYTWN (LVG-TR3 peptide; Fam label)  Kd (CD274 (Homo sapiens, UniProt Q9NZQ7); flow cytometry; peptide, MDA-MB-231; apparent, on cells): 1370 nM
BRCA1 coiled-coil domain M1400T (Homo sapiens)  Kd (PALB2 1-56 (Homo sapiens, UniProt Q86YC2); ITC): 20000 nM
KLLMIIHDRREFAKFEKEKMNAKWDTGENPIYKSAVTTVVNPKYEGK (ITGB1 752-798 (Homo sapiens, UniProt P05556-1); sequence looked up)  Kd (Tln1 309-405 (Mus musculus, UniProt P26039); NMR titration): 491000 nM

Some of these lines once more:
LVGWHRSYYTWN (LVG-TR3 peptide; Fam label)  Kd (CD274 (Homo sapiens, UniProt Q9NZQ7); flow cytometry; peptide, MDA-MB-231; apparent, on cells): 1370 nM
CDH2 EC5 (Homo sapiens)  Kd (FGB residues 15-66, dimer (Homo sapiens); ELISA): 81.3 nM
